Assay results pooled from the literature.
Numbered parts are unrelated; each lists some results of a single study. Values joined by “and” are separate records of one study, mostly repeats; a detail may differ.

Sample 1
Target: RNA binding protein fox-1 homolog 2, RRM domain, GST-SBP tag (RBFOX2, Homo sapiens, UniProt O43251-10, residues 100-194)
Technique: RNA Bind-n-Seq
Form: RNA
Matrix: in vitro
Tested at: 365 nM
Notes: natural RNA segment, single round, ends assumed
Baseline: no-protein control
Reading: higher = stronger binding
Construct (chain): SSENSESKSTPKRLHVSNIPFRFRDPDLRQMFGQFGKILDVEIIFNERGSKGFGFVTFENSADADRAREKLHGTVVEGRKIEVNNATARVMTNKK
Strand | RBNS enrichment (R)
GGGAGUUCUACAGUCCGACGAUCUUUGGGUAUUUCUUCAGCAGGUCCCAAUCUACUGGUACCAAUUUACUGUAUUAGUCCGUUUUCACGCUGCUGAUAAAGACAUACCCGAGACUGGGAAGAAAAAGUGGUUUUGGAAUUCUCGGGUGCCAA | 0.367
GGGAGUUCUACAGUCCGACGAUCCAACGAGUUAAUAAUUCUCAUUCAUCGUUUACACAAUGUAACAUGUGUCAUACUGGGGCCAGCGAGAUGGCUCAGUAGGUAAAGGUGCUUGAUGCUAAGCCCGGCAGCCUUGGAAUUCUCGGGUGCCAA | 0.616
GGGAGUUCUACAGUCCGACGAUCUGGGGAUAGUACUAAUUAUGAAAUUUCCUGCAGGAUCUGUUCUAAGGUUGAAAUUUAGCCCAGCUCUAGGCAUUUUACAAAUUAUUUUAAGAACAGUCACUCUUGAUUGUUGGAAUUCUCGGGUGCCAA | 0.418
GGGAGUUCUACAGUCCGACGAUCCAGAAGCCCACCAAACAGGAGGAAUUCUAUGCCUGACGCGGGAGCCAUGCGCCCCCUCCGCCCUGCCACUCACUAGGCCCCCACUUGCCUCUUCCUUGAAGAACUGCAGGUGGAAUUCUCGGGUGCCAA | 0.22
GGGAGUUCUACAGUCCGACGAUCUAGCUUAACGGUAGUCUUUAGAUCAUAAGAAAUAUAUAAAUUAGUAUGCACCUUAUCUGCCUGUUGUGGGUUUCUUAAACUUGCACUUCCUACCCACCCAAAGAUAGAUAUGGAAUUCUCGGGUGCCAA | 1.13

Sample 2
Target: PABPC1L2, full length, GST fusion (mouse, UniProt A0ABA7IW68)
Technique: RNAcompete
Form: RNA
Matrix: in vitro
Tested at: 20 nM
Notes: 7-mer, probes averaged, single round
Baseline: mean of 7-mers
Reading: higher = stronger binding
Residues (chain): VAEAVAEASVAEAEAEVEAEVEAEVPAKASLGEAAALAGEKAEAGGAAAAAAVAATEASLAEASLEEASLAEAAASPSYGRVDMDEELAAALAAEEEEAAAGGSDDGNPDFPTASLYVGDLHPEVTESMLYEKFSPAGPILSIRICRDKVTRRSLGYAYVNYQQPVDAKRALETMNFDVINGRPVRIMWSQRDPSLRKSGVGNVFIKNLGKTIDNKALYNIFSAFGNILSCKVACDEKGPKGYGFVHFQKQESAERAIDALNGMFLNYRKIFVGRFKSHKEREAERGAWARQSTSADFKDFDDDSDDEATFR
Strand | 7-mer Z-score
GGUGGGG | 0.347
GUCCUGC | -0.338
AGAGACG | 0.195
AGACUUA | -0.106
ACCACGG | 0.182
UCUCAGA | -0.142
CAGGAUC | 0.0642
UCCCGUG | -0.335
GACUUAC | -0.144

Sample 3
Target: Sal-like protein 4, full length isoform A (SALL4, Homo sapiens, UniProt Q9UJQ4, residues 1-1053)
UniProt Q9UJQ4, sequence (whole entry, looked up): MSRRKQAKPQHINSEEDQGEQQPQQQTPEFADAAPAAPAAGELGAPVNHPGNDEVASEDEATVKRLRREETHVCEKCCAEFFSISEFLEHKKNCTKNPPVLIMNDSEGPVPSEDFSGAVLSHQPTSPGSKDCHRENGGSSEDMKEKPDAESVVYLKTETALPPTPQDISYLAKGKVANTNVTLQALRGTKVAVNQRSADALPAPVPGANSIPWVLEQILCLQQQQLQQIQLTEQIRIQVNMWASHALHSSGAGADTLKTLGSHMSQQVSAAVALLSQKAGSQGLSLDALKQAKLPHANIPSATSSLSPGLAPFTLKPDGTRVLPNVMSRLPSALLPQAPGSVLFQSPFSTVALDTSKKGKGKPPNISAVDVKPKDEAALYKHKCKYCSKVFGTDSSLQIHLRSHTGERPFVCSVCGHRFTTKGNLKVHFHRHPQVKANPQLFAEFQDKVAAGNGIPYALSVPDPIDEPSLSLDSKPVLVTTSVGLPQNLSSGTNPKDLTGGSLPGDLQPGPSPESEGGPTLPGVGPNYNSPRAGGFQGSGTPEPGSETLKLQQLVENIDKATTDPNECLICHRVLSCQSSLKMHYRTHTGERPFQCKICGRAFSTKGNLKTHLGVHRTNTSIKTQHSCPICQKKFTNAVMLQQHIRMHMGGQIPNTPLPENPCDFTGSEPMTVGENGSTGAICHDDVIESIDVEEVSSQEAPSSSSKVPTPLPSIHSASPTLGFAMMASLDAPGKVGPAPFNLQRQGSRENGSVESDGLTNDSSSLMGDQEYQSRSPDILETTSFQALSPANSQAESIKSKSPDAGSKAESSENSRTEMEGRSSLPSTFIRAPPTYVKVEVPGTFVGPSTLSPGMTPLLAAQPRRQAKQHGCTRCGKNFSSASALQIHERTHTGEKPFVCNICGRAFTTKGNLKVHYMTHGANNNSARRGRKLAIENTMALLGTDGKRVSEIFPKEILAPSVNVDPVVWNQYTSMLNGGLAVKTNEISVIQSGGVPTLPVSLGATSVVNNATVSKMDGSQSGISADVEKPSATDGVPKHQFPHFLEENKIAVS
Technique: universal PBM
Form: double-stranded DNA, one strand shown
Matrix: in vitro
Tested at: 600 nM
Notes: 8-mer, flanks averaged, mean of replicates
Reading: higher = stronger binding
Strand | E-score
AGTTGATG | 0.179
ATGATCAA | 0.258
TATAGCCA | 0.185
ATCCCGTG | -0.118
AAACGGAT | 0.0826
GGTTGTCA | -0.00414
ATGAAGGC | 0.117
GGCGACTA | -0.171
AACCTCTA | 0.116

Mixed results
Substance | target | assay | system | setting | scale | endpoint | value
PhoQ, residues 284 288 289 292 302 303 SLANIV | PhoP, residues 12 14 15 18 19 LWHSL (Escherichia coli, UniProt P23836) | Sort-seq, measured: YFP reporter | E. coli | PhoQ-PhoP variant library, added: 10 µM Mg2+ | baseline: high Mg2+ state, higher = stronger signaling | fold induction | 15.1 and 8.68

Excerpt of the above (sample 3):
Strand | E-score
AAACGGAT | 0.0826
